Published values from different studies.
Each numbered part is a random draw from the data of one study; scales do not carry over between parts.

Study 1
Target: Ras GTPase-activating protein-binding protein 1, RRM domain (G3BP1, Homo sapiens, UniProt Q13283)
Sequence of UniProt Q13283 (whole entry, looked up): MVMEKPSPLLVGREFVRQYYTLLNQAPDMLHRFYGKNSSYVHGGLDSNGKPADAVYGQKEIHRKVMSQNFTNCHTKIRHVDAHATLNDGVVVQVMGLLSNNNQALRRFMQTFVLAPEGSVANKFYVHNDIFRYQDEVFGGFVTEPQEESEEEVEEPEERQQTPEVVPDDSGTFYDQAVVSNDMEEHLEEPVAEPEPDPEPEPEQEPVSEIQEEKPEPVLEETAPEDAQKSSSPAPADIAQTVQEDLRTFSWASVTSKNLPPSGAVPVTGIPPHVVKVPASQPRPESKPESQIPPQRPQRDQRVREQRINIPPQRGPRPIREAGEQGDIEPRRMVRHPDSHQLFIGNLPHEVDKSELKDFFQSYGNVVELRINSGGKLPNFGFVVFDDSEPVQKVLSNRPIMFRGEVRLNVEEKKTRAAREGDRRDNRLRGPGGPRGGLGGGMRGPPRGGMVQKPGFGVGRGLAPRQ
Method: RNA Bind-n-Seq
Form: RNA
Matrix: in vitro
Concentration: 1 µM
Setting: whole 134-nt RNA, ends assumed
With: 150 mM KCl
Relative to: input library
Reading: higher = stronger binding
Sequence	log2 enrichment
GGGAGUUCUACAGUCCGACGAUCUACAUUCUUUACCCCUUGUUUUAAUUUGAACCCCACCAUAUGGAUUUUUUUCCUUAAGAAAAUCUCCUUUUAGGAGAUCAUGGUGUCACAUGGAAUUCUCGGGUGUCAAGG	-0.403
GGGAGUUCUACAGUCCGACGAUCUUCUCUGCCGGCUCAGAGGAGAGGAGACGCCGUGAGCGGGACGACCAGAUGUACCGAGAGCGGCUGCGCACCUUGCUGGUCAUCGCGGUUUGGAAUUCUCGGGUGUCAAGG	-0.516
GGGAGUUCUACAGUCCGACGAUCCAAGUCCUGUGCUACACAUCGUAUGUACCGAAUCGGGGCCCGGCCCGGCCCGGGGAAAGUAUUAUGUUACGCCGUUCGGAUCUGCACUUCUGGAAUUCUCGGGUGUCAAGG	-0.993
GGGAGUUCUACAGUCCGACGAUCUAACUUUAGAGGAGGAUCUGAUGGAUAUGGCAGUGGACGUGGAUUUGGGGAUGGCUAUAUUGGGUAUGGAGGAGGACCUGGAGGUGGCAAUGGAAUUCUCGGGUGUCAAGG	-0.334
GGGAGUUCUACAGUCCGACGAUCCAUAGACAACACGCACCCACACAGACACAGAGGGAAGGGGUUGGGAUGGGGACAGGGUGCACAGCAGGGCGGGGUAGGACCCCAGCCCCUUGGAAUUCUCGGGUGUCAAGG	-0.177

Study 2
Target: Histone acetyltransferase KAT6A, both winged helices, GST fusion (KAT6A, Homo sapiens, UniProt Q92794, residues 1-181)
Method: protein binding microarray
Form: double-stranded DNA, one strand shown
Matrix: in vitro
Concentration: not given
Setting: 8-mer, flanks averaged, mean of 2 arrays, mostly near background
Relative to: not given
Reading: higher = stronger binding
Target sequence (chain): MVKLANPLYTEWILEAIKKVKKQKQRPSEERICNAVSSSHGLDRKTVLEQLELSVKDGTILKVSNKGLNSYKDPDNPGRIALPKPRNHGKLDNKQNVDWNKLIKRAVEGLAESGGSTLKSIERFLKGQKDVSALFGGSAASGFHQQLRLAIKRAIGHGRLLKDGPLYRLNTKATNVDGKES
Sequence	E-score
GCCCCGAC	0.0858
GTCGTGTA	0.104
CTACACCA	-0.254
CCACGCCG	0.243
GTGGGCGA	-0.0757
GTGATCTA	-0.00643

Study 3
Target: Protein C-ets-1 (ETS1, Homo sapiens, UniProt P14921, residues 1-441, full length assumed)
Method: protein-binding microarray
Form: double-stranded DNA, one strand shown
Matrix: in vitro
Concentration: not given
Setting: k-mer, scored over probes, only values ≥0.25
Reading: higher = stronger binding
Construct (chain): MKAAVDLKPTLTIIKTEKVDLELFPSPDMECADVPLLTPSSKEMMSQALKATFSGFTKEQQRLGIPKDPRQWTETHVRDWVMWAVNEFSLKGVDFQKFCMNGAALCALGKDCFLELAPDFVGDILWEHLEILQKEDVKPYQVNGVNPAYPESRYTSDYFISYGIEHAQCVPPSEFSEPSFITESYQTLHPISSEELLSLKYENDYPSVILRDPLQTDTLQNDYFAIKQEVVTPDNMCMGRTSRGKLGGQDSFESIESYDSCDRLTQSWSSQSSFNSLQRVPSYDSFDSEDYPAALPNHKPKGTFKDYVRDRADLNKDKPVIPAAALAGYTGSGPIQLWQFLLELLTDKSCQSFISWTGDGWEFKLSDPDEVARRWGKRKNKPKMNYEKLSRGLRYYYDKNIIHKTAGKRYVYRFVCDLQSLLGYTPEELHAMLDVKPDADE
Sequence	E-score
ATCTCCGG	0.339
TAGCAGGA	0.267
GCGACGGA	0.333
CGTCCGGA	0.443
ATTCCGGC	0.375
GGACGGGA	0.289
AAACGGAA	0.423

Further values, each from its own experiment
Molecule	target	assay	test system	setting	scale	quantity	value
PhoQ, residues 284 288 289 292 302 303 SSLVEF	PhoP, residues 12 14 15 18 19 HLGGL (Escherichia coli, UniProt P23836)	Sort-seq, refers to: YFP reporter	E. coli	PhoQ-PhoP variant library, with: 10 µM Mg2+	relative to: high Mg2+ state, higher = stronger signaling	fold induction	1.82

For quick reference, copied from above (study 2):
Sequence	E-score
GCCCCGAC	0.0858
